Measurements from different studies.
Lines come from different studies, so protocols differ.
Target: Mitogen-activated protein kinase kinase kinase 9 (MAP3K9, Homo sapiens, UniProt P80192)

CN1CCN(Cc2ccc(-c3ccc(CO[C@H]4CCC[C@@H]4NC(=O)c4cc(-c5cnn(C)c5)cnc4N)cc3)cc2)CC1
inhibition (enzyme activity, inhibitor; 0.1 µM): -8%

CNS(=O)(=O)Nc1nccc(Cc2c(C)c3ccc(Oc4ncccc4F)cc3oc2=O)c1F
remaining binding (binding, competition with immobilised ligand; 10 µM): 89%

COc1ccc(O)cc1-c1c[nH]c2ncc(-c3cncc(C(=O)N(C)C)c3)cc12
inhibition (binding, competition with immobilised ligand; 0.2 µM): 29.5%

CCN1CCN(Cc2ccc(C(=O)Nc3ccc(C)c(NCc4cnc5[nH]ccc5c4OC)c3)cc2C(F)(F)F)CC1
remaining binding (binding, competition with immobilised ligand; 1 µM): 100%

O=C(O)CCC(=O)c1cccc(NS(=O)(=O)c2c[nH]c3ncccc23)c1
remaining activity (kinase activity, radiometric; 10 µM): 96%

COc1ccc(NC(=O)Nc2ccc3c(c2)C(=O)N(C(C)CO)CC(C)C(CN(C)Cc2ccc4c(c2)OCO4)O3)cc1 (stereo not shown)
remaining activity (kinase activity, KinaseProfiler; 0.03 µM, species human; baseline: control): 92%

CNC(=O)C1CCN(c2cc(C)c(F)cc2NC(=O)c2ccc(-c3cc(O)ccc3C)c(C)c2)CC1
remaining binding (binding, competition with immobilised ligand; 1 µM): 90%

CN1CCN(Cc2ccc(NC(=O)c3cccc(C#Cc4cnc(N)c5ncccc45)c3)cc2C(F)(F)F)CC1
remaining binding (cell-free assay, competition with immobilised ligand; 50 nM): 83%

O=C(Cc1ccc(OCc2ccccc2)cc1)NC1(C(=O)O)CCN(C(=O)c2ccc(-c3cccc(Cl)c3)cc2)CC1
activity vs control (enzyme activity, inhibitor; 10 µM): 98%

Cc1cnc2nc1Nc1cccc(c1)COC/C=C/COCc1cc(ccc1OCCN1CCOCC1)N2
remaining binding (binding, competition with immobilised ligand; 0.1 µM): 93%

CS(=O)(=O)Nc1cccc(-c2csc3cnc(Nc4ccc(N5CCN(CCCCCOc6cccc7c6C(=O)N(C6CCC(=O)NC6=O)C7=O)CC5)cc4)nc23)c1 (stereo not shown)
inhibition (probe labelling, inhibitor, KiNativ chemoproteomics; MOLT-4; 1 µM): 52.5%

Nc1ncc2c(n1)-c1c([nH]c3ccc(C4=CCOCC4)cc13)CCC2
remaining binding (binding, competition with immobilised ligand; 1 µM): 100%

NC(=O)C[C@H]1CCc2sc3ncnc(O[C@H]4CC[C@H](N5CCOCC5)CC4)c3c21
inhibition (enzyme activity, inhibitor; 10 µM): 7%

O=C=[N][Ru-4]123([n]4c5ccc(O)cc5c5c6c(c7cc(F)c[n+]1c7c54)C(=O)NC6=O)[S+]1CC[S+]2CC[S+]3CC1 (stereo not shown)
remaining activity (enzyme activity; 100 nM, human enzyme, added: 10 µM ATP; baseline: untreated): 86%

COc1c(Cl)cccc1Nc1c(-c2ccncc2C#C[C@@]2(C)CCCN2C(=O)/C=C/CN(C)C)[nH]c2c1C(=O)NCC2
remaining binding (binding, competition with immobilised ligand; 3 µM): 100%

Nc1ncc(-c2cc(-c3cnn(CC(F)(F)F)c3)ncc2F)nc1C(=O)NC1CNCC(F)C1 (stereo not shown)
remaining activity (enzyme activity; 1 µM; baseline: DMSO control): 88.5%

Excerpt of the above:
CCN1CCN(Cc2ccc(C(=O)Nc3ccc(C)c(NCc4cnc5[nH]ccc5c4OC)c3)cc2C(F)(F)F)CC1
remaining binding (binding, competition with immobilised ligand; 1 µM): 100%

CN1CCN(Cc2ccc(-c3ccc(CO[C@H]4CCC[C@@H]4NC(=O)c4cc(-c5cnn(C)c5)cnc4N)cc3)cc2)CC1
inhibition (enzyme activity, inhibitor; 0.1 µM): -8%
